Experimental data of several laboratories.
Numbered parts are unrelated; each lists some results of a single study. “And” joins repeats or separate records; there may be more than shown.
Sequence of UniProt Q8NI60 (whole entry, looked up): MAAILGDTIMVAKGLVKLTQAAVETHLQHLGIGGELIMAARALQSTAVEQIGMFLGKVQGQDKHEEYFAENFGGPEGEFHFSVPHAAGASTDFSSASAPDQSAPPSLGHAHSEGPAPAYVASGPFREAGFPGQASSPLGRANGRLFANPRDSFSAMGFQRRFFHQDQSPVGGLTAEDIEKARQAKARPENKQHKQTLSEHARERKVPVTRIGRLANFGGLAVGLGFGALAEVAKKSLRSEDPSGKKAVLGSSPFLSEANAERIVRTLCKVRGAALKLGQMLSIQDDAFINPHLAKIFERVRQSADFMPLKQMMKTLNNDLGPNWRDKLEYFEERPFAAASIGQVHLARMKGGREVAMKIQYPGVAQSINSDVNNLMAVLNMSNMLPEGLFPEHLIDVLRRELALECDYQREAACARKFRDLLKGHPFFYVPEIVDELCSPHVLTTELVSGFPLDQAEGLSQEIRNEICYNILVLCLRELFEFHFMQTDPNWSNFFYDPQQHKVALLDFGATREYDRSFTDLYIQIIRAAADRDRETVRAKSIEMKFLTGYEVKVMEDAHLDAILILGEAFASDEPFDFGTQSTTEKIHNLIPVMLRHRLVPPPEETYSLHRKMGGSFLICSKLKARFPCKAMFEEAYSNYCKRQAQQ
Sequence of UniProt O96013 (whole entry, looked up): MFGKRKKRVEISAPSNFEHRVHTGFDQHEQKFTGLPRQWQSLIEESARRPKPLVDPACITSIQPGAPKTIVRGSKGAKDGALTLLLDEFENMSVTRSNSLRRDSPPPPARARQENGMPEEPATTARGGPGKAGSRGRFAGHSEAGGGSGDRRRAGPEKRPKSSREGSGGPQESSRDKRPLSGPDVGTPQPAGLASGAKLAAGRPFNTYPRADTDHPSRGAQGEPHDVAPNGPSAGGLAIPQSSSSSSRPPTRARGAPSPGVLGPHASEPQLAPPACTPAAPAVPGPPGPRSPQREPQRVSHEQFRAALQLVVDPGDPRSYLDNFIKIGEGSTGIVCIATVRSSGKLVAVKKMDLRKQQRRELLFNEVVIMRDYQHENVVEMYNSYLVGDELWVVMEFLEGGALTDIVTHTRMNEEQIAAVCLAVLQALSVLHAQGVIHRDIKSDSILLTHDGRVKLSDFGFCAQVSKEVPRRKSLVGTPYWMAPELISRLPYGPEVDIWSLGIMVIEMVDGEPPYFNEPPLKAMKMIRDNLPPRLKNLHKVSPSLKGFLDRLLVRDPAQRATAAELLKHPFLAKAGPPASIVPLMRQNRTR
Sequence of UniProt P45983 (whole entry, looked up): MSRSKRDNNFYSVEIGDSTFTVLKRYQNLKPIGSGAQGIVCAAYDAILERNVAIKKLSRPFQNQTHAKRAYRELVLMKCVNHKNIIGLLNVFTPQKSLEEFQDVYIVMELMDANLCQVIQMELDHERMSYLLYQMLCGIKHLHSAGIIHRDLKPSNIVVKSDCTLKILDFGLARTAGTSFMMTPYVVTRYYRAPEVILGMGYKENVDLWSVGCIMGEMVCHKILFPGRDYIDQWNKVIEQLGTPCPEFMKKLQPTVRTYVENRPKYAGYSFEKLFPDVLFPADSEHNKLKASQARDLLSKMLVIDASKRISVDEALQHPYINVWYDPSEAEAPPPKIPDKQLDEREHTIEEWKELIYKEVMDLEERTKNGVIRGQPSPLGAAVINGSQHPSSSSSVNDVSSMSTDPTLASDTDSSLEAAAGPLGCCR
Sequence of UniProt O14733 (whole entry, looked up): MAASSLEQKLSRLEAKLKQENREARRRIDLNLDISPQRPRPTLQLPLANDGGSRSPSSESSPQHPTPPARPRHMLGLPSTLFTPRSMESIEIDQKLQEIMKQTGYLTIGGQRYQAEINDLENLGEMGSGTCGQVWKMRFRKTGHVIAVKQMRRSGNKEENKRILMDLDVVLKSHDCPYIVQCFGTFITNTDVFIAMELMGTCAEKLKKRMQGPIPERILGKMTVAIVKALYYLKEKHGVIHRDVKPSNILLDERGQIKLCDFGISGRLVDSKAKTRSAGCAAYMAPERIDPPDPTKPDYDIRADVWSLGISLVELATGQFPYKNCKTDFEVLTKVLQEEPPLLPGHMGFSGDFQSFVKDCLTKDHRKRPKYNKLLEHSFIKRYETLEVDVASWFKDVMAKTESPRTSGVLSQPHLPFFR
Sequence of UniProt Q8IW41 (whole entry, looked up): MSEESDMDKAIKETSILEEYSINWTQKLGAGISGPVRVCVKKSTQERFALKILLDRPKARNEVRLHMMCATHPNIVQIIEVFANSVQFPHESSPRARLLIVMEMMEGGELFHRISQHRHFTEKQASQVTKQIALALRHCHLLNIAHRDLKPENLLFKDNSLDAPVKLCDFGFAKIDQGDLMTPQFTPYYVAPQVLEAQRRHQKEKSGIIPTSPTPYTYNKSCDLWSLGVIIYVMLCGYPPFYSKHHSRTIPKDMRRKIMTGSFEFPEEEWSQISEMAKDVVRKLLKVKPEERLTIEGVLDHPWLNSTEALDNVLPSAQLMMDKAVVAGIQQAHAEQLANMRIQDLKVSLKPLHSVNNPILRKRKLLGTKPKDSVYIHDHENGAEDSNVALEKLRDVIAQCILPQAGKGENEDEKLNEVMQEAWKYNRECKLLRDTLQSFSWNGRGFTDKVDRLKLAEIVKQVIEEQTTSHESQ
Sequence of UniProt Q13523 (whole entry, looked up): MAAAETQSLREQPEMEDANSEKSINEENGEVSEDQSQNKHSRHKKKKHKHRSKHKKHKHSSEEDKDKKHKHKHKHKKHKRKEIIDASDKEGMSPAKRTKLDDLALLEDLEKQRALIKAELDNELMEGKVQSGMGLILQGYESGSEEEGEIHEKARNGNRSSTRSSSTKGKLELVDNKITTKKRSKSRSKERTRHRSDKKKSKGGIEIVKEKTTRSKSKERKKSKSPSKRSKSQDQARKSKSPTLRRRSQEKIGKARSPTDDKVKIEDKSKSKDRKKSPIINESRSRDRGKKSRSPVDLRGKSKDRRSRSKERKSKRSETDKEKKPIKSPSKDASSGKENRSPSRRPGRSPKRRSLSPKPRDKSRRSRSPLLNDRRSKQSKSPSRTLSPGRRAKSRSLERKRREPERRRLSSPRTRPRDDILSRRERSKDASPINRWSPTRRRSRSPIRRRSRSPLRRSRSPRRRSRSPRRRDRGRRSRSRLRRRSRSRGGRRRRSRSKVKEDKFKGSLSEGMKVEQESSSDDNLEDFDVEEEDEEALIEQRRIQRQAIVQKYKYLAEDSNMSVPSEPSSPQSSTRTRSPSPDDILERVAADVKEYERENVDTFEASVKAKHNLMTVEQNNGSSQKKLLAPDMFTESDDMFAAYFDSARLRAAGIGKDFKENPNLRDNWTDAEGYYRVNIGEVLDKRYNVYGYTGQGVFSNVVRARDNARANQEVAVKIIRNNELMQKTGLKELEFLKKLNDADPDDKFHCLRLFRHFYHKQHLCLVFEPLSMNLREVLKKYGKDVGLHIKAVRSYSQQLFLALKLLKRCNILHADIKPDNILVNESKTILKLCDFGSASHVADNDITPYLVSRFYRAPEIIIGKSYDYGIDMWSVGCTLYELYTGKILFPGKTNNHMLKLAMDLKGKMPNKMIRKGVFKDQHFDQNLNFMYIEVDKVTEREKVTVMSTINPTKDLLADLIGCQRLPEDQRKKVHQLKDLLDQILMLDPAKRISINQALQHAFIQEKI
Sequence of UniProt P19525 (whole entry, looked up): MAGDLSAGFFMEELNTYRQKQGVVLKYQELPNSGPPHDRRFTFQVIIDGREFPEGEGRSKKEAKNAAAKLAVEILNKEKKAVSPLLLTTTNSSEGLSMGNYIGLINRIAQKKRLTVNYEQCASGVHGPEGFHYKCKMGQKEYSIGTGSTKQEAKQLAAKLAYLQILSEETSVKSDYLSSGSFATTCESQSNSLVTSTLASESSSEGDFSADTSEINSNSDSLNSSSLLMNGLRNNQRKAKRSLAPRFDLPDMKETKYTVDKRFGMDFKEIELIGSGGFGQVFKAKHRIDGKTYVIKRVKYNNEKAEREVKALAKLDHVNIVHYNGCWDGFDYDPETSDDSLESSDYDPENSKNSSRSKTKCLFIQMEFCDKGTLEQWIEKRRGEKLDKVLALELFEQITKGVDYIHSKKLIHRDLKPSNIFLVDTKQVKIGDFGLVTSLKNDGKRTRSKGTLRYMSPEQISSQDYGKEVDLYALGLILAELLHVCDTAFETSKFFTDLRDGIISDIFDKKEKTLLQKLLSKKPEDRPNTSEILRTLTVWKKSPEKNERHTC

Study 1 — effect on: enzyme activity; action: inhibitor; tested at: 0.5 µM; baseline: control
Target: Dual specificity protein kinase TTK (TTK, Homo sapiens, UniProt P33981)
Sequence of UniProt P33981 (whole entry, looked up): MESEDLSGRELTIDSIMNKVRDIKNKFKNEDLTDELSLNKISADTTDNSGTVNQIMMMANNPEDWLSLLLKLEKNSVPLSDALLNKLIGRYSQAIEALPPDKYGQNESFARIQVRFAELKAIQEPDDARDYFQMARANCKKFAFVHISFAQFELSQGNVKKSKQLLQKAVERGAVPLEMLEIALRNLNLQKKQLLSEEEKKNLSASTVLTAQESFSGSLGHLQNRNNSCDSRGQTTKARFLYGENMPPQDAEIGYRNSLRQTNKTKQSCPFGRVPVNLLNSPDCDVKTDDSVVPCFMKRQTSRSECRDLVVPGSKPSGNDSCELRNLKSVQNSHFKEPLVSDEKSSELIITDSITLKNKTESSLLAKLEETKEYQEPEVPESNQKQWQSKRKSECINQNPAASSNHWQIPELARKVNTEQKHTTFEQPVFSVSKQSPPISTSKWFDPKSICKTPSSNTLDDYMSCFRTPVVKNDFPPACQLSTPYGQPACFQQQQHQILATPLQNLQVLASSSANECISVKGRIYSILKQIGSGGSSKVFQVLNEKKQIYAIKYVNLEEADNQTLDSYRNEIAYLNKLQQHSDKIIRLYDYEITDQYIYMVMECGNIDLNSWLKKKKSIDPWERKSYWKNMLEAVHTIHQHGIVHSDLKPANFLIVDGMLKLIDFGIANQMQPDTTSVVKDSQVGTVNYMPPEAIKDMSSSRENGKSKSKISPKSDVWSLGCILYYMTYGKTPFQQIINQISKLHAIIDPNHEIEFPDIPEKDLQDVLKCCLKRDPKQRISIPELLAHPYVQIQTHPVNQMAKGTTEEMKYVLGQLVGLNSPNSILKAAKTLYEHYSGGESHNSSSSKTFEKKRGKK
| Structure (SMILES) | remaining activity [%] |
| --- | --- |
| c1cc(-c2cnn3cc(-c4ccc(OCCN5CCCCC5)cc4)cnc23)ccn1 | 82.8 |
| CNc1cc2c(Nc3cccc(Br)c3)ncnc2cn1 | 100 |
| CC(C)N(CCC(=O)c1ccc2ccccc2c1)Cc1ccccc1 | 96 |
| O=C(O)/C=C/c1cc(Br)c(Br)c(Br)c1Br | 98.1 |
| Clc1ccc(Nc2nnc(Cc3ccncc3)c3ccccc23)cc1 | 108 |
| COc1cc2c(N3CCN(C(=O)Nc4ccc(OC(C)C)cc4)CC3)ncnc2cc1OCCCN1CCCCC1 | 100 |
| CCN(CC)CCCCN1c2ccccc2Oc2ccc(Cl)cc21 | 104 |

Study 2 — SMILES: CCOc1ccc(Nc2c3c(nc4ccccc24)CCC3)cc1
| cell line | test | setting | cytotoxicity |
| --- | --- | --- | --- |
| PMA-differentiated THP-1 macrophages | – | 0.02 µM, 64 h | -1% and 3% |
| PMA-differentiated THP-1 macrophages | – | 0.8 µM, 64 h | 2% |
| J774.1 | resazurin | 0.32 µM | -5% and -4% |
| J774.1 | resazurin | 0.0166 µM | -4% |
| RAW264.7 | resazurin | 66.66 µM, 64 h | 100% |
| HEK293 | resazurin | 16.66 µM, 10% serum | 51% and 48% |
| PMA-differentiated THP-1 macrophages | – | 20 µM, 64 h | 63% and 48% |

Study 3 — tested at: 1 µM
SMILES: CCCOc1ccc([C@H]2[C@H](C(=O)O)[C@@H](c3ccc4c(c3)OCO4)CN2CC(=O)Nc2c(CC)cccc2CC)cc1
| target | test | remaining binding |
| --- | --- | --- |
| COQ8A (Homo sapiens, UniProt Q8NI60) | cell-free assay, competition with immobilised ligand | 100% |
| PAK2 (Homo sapiens, UniProt Q13177) | cell-free assay, competition with immobilised ligand | 94% |
| MAPK8 (Homo sapiens, UniProt P45983) | cell-free assay, competition with immobilised ligand | 70% |
| EPHA5 (Homo sapiens, UniProt P54756) | cell-free assay, competition with immobilised ligand | 100% |
| PRPF4B (Homo sapiens, UniProt Q13523) | cell-free assay, competition with immobilised ligand | 82% |
| MAPKAPK5 (Homo sapiens, UniProt Q8IW41) | cell-free assay, competition with immobilised ligand | 65% |
| CDK19 (Homo sapiens, UniProt Q9BWU1) | competition binding | 95% |
| RET (Homo sapiens, UniProt P07949, M918T) | cell-free assay, competition with immobilised ligand | 84% |
| MAP3K13 (Homo sapiens, UniProt O43283) | cell-free assay, competition with immobilised ligand | 47% |
| PAK4 (Homo sapiens, UniProt O96013) | cell-free assay, competition with immobilised ligand | 91% |
| EIF2AK2 (Homo sapiens, UniProt P19525) | cell-free assay, competition with immobilised ligand | 100% |
| MAPK15 (Homo sapiens, UniProt Q8TD08) | cell-free assay, competition with immobilised ligand | 100% |
| MAP2K7 (Homo sapiens, UniProt O14733) | cell-free assay, competition with immobilised ligand | 74% |
| ALK (Homo sapiens, UniProt Q9UM73, C1156Y) | cell-free assay, competition with immobilised ligand | 98% |

Study 4 — cell line: A-375; tested at: 100 µM; time: 18 h
| SMILES | viability [%] |
| --- | --- |
| CC(=O)OC(C)C[N+](C)(C)C (centres unmarked) | 110 |
| CCCNC(=O)NS(=O)(=O)c1ccc(Cl)cc1 | 106 |
| NCCCC(N)(C(=O)O)C(F)F (centres unmarked) | 93.8 |
| NC(=O)CCCCC1CCSS1 (centres unmarked) | 98.6 |
| CCc1nn(CCCN2CCN(c3cccc(Cl)c3)CC2)c(=O)n1CCOc1ccccc1 | 16.9 |
| COc1cc2ccc(=O)oc2cc1O | 105 |
| CN1[C@@H]2CC[C@H]1C[C@@H](OC(=O)c1c[nH]c3ccccc13)C2 | 85.3 |
| O=c1c(-c2ccc(O[C@@H]3O[C@H](CO)[C@@H](O)[C@H](O)[C@H]3O)cc2)coc2cc(O)cc(O)c12 | 99.4 |
| CN1CCCCC1CCN1c2ccccc2Sc2ccc([S+](C)[O-])cc21 (centres unmarked) | 14.8 |
| CCOc1cc([C@@H](CS(C)(=O)=O)N2C(=O)c3cccc(NC(C)=O)c3C2=O)ccc1OC | 107 |
| Cc1ccc(-c2cc(C(F)(F)F)nn2-c2ccc(S(N)(=O)=O)cc2)cc1 | 8.05 |
| CN(C/C=C/c1ccccc1)Cc1cccc2ccccc12 | 50.2 |
| CC(C)(C)NC(=O)[C@H]1CC[C@H]2[C@@H]3CC[C@H]4NC(=O)C=C[C@]4(C)[C@H]3CC[C@]12C | 79.1 |

For quick reference, copied from above (study 3):
| target | test | remaining binding |
| --- | --- | --- |
| EPHA5 (Homo sapiens, UniProt P54756) | cell-free assay, competition with immobilised ligand | 100% |
| EIF2AK2 (Homo sapiens, UniProt P19525) | cell-free assay, competition with immobilised ligand | 100% |
| MAPK15 (Homo sapiens, UniProt Q8TD08) | cell-free assay, competition with immobilised ligand | 100% |
| PRPF4B (Homo sapiens, UniProt Q13523) | cell-free assay, competition with immobilised ligand | 82% |
